Experimental data from different studies.
Parts stem from different laboratories: compare values within a part only.

Sample 1
Target: Interferon regulatory factor 5, full length, phosphomimetic (IRF5, Homo sapiens, UniProt Q13568-2, residues 1-514, S451D/S453D/S456D/S462D)
Technique: protein-binding microarray
Form: double-stranded DNA, one strand shown
Medium: in vitro
Concentration: 940 nM top
Notes: 60-bp whole probe
With: salmon DNA 0.4 mg/ml
Baseline: random background probes
Reading: higher = stronger binding
All sequences stand within: GCCTAGCAC … GTCTTGATTCGCTTGACGCTGCTG
For `GACGGTTTTGGTATCGGGACGTGCTAG`, “fitted relative affinity” read 5.28 z-score.
`TCATGAGTCACTTCTGGTACTGTGCTA`: “fitted relative affinity” -0.266 z-score.
`TTCACTTTAACTTATTCTCTAGTGCTA`: “fitted relative affinity” 1.14 z-score.
Under “fitted relative affinity”, `GACGAACTGAGTATCGCGACGTGCTAG` is recorded as -0.0993 z-score.
Under “fitted relative affinity”, `ATTTGCTTCAGGTTTACCAGAGTGCTA` is recorded as -0.345 z-score.
Under “fitted relative affinity”, `GAGGGGGCAGGGACTCAGGGGTGCTAG` is recorded as 1.64 z-score.
For `GACGATCTGAGTCTCGAGACGTGCTAG`, “fitted relative affinity” read 0.247 z-score.
`TTAGATATCGGGATTCGATTAGTGCTA` — result for “fitted relative affinity”: 0.303 z-score.
For `TTAGGTATCGACTATCGGCTAGTGCTA`, “fitted relative affinity” read 5.47 z-score.
For `GACGGTTTCCGTCTCCTGACGTGCTAG`, “fitted relative affinity” read 1.99 z-score.
Under “fitted relative affinity”, `TCAGTTCCCTATTTAAGACTGTGCTAG` is recorded as 0.691 z-score.
For `GCATCTATCTTAAATAGGGACGTGCTA`, “fitted relative affinity” read -0.156 z-score.
Under “fitted relative affinity”, `TTAGATTTCAGTTTCCATTAGTGCTAG` is recorded as 1.99 z-score.
`TTCGATATCAGACTGGATTAGTGCTAG`: “fitted relative affinity” -0.273 z-score.
`TTAGGACTGGGGTTTCGGTTGGTGCTA`: “fitted relative affinity” 5.58 z-score.
`TTAGATAACGGGTATCGATTAGTGCTA`: “fitted relative affinity” 2.9 z-score.
Under “fitted relative affinity”, `TCAGCTTCCTCTTTACTACTGTGCTAG` is recorded as 1.1 z-score.
Under “fitted relative affinity”, `GACGATATCAGGATCGAGACGTGCTAG` is recorded as -0.157 z-score.
Under “fitted relative affinity”, `GACTATTTCAGTTTCGAGACGTGCTAG` is recorded as 5.29 z-score.

Sample 2
Target: Histone acetyltransferase KAT6A, winged helix 1, GST fusion (KAT6A, Homo sapiens, UniProt Q92794, residues 1-85)
Technique: protein binding microarray
Form: double-stranded DNA, one strand shown
Medium: in vitro
Concentration: not given
Notes: 8-mer, flanks averaged, mean of 2 arrays, mostly near background
Baseline: not given
Reading: higher = stronger binding
Residues (chain): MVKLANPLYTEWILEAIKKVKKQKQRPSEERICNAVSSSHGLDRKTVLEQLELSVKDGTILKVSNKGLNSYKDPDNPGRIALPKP
`GCCATCAC` gave an E-score of 0.0938.
For `TACCTTGA`, the E-score was -0.0607.
With `CTAAGTCA` the E-score was -0.149.
With `TTCTAAAA` the E-score was -0.0851.
`GAGGAGGC` has an E-score of 0.00951.
`CGCCCACA` gave an E-score of 0.0428.
`AAATCCAA` gave an E-score of -0.145.
With `AGTCGTAG` the E-score was -0.215.
`GCTTTACC` gave an E-score of 0.13.
`ATATCCGA` has an E-score of 0.116.
With `ACTCTAGA` the E-score was -0.241.
`CAAGATCG` gave an E-score of 0.069.
The E-score of `CCTGACAA` is reported as -0.202.
`CAGCCCCG` gave an E-score of 0.243.
`ACCTAATG` gave an E-score of -0.103.
`TACGACTA` has an E-score of -0.0359.
`GAAATCGC` has an E-score of -0.0345.
With `ACACGTGT` the E-score was -0.35.
With `CTAGTGAA` the E-score was -0.219.
With `AATGAACT` the E-score was -0.155.
With `GAACGATC` the E-score was -0.104.
`AATCTATG` gave an E-score of -0.195.

Sample 3
Target: Sal-like protein 4, full length isoform B (SALL4, Homo sapiens, UniProt Q9UJQ4-2, residues 1-616)
Technique: universal PBM
Form: double-stranded DNA, one strand shown
Medium: in vitro
Concentration: not given
Notes: 8-mer, flanks averaged, mean of replicates
Reading: higher = stronger binding
For `AGAGGCAA`, the E-score was 0.106.
With `GGGGAGCA` the E-score was -0.284.
With `TAACATCA` the E-score was 0.247.
With `CTCACTCC` the E-score was -0.197.
`CGATGTAG` has an E-score of -0.0115.
`ATGTCGAA` gave an E-score of 0.0842.
The E-score of `AAGGTCAT` is reported as 0.0655.
With `GCGCTGAA` the E-score was -0.331.
`CAGCCTGC` gave an E-score of -0.199.
`GTTTCATA` gave an E-score of 0.336.
For `ACCGTCGT`, the E-score was -0.0261.
The E-score of `AAAGACTA` is reported as 0.0353.
`ACCCACGT` has an E-score of -0.114.
With `GAGAGCGA` the E-score was -0.104.
With `AGGTAACG` the E-score was -0.0387.
For `AGAAAAAC`, the E-score was 0.119.
With `AAGCTGGG` the E-score was -0.122.
With `AGTCCCGC` the E-score was -0.195.
For `AGGATGGA`, the E-score was -0.055.
`AAGCCGTA` gave an E-score of 0.0804.
For `AGGGTTGA`, the E-score was -0.0727.
`AGCGACTA` has an E-score of 0.00704.

Sample 4
Target: RING finger protein unkempt homolog, zinc fingers 1-6, GST-SBP tag (UNK, Homo sapiens, UniProt Q9C0B0, residues 30-357)
UniProt Q9C0B0, sequence (30-357, looked up): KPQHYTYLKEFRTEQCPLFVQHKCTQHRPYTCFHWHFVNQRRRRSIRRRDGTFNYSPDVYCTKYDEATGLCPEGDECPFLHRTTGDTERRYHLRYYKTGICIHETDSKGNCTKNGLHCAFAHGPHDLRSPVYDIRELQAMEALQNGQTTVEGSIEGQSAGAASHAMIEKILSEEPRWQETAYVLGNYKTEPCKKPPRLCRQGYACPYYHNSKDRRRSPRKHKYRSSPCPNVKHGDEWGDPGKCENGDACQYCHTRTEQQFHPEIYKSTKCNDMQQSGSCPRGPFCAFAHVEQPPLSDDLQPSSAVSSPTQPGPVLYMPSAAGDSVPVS
Technique: RNA Bind-n-Seq
Form: RNA
Medium: in vitro
Concentration: not given
Notes: RNA with constant flanks, human and mouse sites, ends assumed
Baseline: input RNA pool
Reading: higher = stronger binding
All sequences stand within: GGGAGUUCUACAGUCCGACGAUC … CAACAGAGGAUUGAGCAUCA
`CCGACUGACACCACCACCUACAAGAACCUGCAGCACCAUGACUACAACACAUACACCUUCCUGGACCUGAACCUGGACCUCUCCAAAUUCAGGCUGCCACAGCCGUCUUCAGGACGAGAG` has a bound/input enrichment of 0.277 ratio.
`UAUAAGAACUCUUGCAGUCUUAGAUGUUAUAAAAAUAUAUAUCUGAAUUGUAAGAGUUGUUAGCACAAGUUUUUUUUUUUUUUUUUUUUAAGCACUUGUUUUGGGUACAAGGCAUUUCUG` gave a bound/input enrichment of 3.87 ratio.
`GAGGUUGGAGGUGGUGCUGCUGGGGAACGGGAGCUGGAUGAGGGUCGAGCACGCACGCAUGCAUGCCAAGCACCGUGGCCAUGAAGCUAUGCAUGCUGAAAUGGUCCUCAUCCUCAUCGC` has a bound/input enrichment of 0.105 ratio.
`UGGUCAAUAUUCCUAGGAAUGGGAACAUUACUCUGGGGCCAGCUUAUUUCAACAAUUCCAACUAGCCGUUUAAAAUUCCUCAAAGAAGCUGGUCAUGGAACACAAAAGGAAGAAAUACCU` gave a bound/input enrichment of 1.02 ratio.
For `UAAAAAGUGUUUUGAAUUGUGUCUUAAUCUCUCCAUAUUCAACUAUUCUUCAUUUACAACAAUAGUGACACCAGUAAUUAUGAGAGGCUGUCAUAUAUCAAAGCAGCUCAGGUGGGAUCA`, the bound/input enrichment was 0.695 ratio.
The bound/input enrichment of `ACAUUAAGCAGACUGUCUCAGGUAUAAUGAAAAGAAUCGUCCAGUAGAGAUAGUGGAACAUCUUGCUAGUUGUCCUGUCUGUAGGACUCGAGAGUUGGGAGGAGGGAGGAAGGCAGGGAA` is reported as 1.43 ratio.
The bound/input enrichment of `AGUACUGUUAUCAACAAUACCAGAGGAAUAAUUUUUUAUAGUGUCCCUCAUCAUGGAUCACGUUUGGCUGAAUACUCUGUUAAUAUUCGCUAUCUUCUCUUCCCCUCGUUGGAAGUCAAA` is reported as 0.298 ratio.
`AGAAGUCUUGUGAUGAAAAUGGCACUUGGAAAAGGUUUUAUUUUUCCACUGAAGUUGAAGGUUAAUAAAAUGGUGUCAAACGUCCCCUGGUCACACACUUGAAUAUUUUUUUAGAAGUGU` has a bound/input enrichment of 0.417 ratio.

Some of these lines once more (sample 3):
With `CTCACTCC` the E-score was -0.197.
With `AAGCTGGG` the E-score was -0.122.
`AGCGACTA` has an E-score of 0.00704.
For `AGAAAAAC`, the E-score was 0.119.
For `AGGATGGA`, the E-score was -0.055.
With `GCGCTGAA` the E-score was -0.331.
With `TAACATCA` the E-score was 0.247.
The E-score of `AAGGTCAT` is reported as 0.0655.
For `ACCGTCGT`, the E-score was -0.0261.
`GTTTCATA` gave an E-score of 0.336.
With `AGTCCCGC` the E-score was -0.195.
`CAGCCTGC` gave an E-score of -0.199.
